Published values pooled from the literature.
Each numbered part is a random draw from the data of one study; scales do not carry over between parts.

Series 1
Target: Histone acetyltransferase KAT6A, winged helix 1, GST fusion (KAT6A, Homo sapiens, UniProt Q92794, residues 1-85)
Technique: protein binding microarray
Form: double-stranded DNA, one strand shown
Medium: in vitro
Tested at: not given
Notes: 8-mer, flanks averaged, mean of 2 arrays, mostly near background
Reference: not given
Reading: higher = stronger binding
Endpoint: E-score
Residues (chain): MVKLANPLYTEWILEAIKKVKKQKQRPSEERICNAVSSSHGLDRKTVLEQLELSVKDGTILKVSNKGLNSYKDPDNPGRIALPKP
GCGTATTA: 0.124
GGCAGCCC: 0.2
AAACTTGG: -0.0075
GGTCCAAC: -0.00337
AACAGCCC: -0.0657
GGACAAGA: 0.0742
CCATTTCA: -0.235
GGTTTTCA: -0.0163
GCATGCAA: 0.00554
CATGGGCG: 0.0829
AACCAGGC: -0.133
TCCCCACA: -0.241
CCAGCACG: 0.0415
TCTTATAA: 0.0399
CGATTCCA: -0.113
AGCGCTTA: 0.32
CAAAGCTA: -0.0351
CACTGGAC: -0.0585
ACCGCTCG: 0.269
AACTAACA: -0.0394
ACTACGCT: 0.115
GAGGCACC: 0.101
ACCCAGCT: -0.191
GTTGTCAA: -0.0793

Series 2
Target: Sal-like protein 4, full length isoform B (SALL4, Homo sapiens, UniProt Q9UJQ4-2, residues 1-616)
Technique: universal PBM
Form: double-stranded DNA, one strand shown
Medium: in vitro
Tested at: not given
Notes: 8-mer, flanks averaged, mean of replicates
Reading: higher = stronger binding
Endpoint: E-score
AAGTGCTC: -0.178
ATTCGCCC: -0.188
AAGGGCTA: -0.0581
ATCGACTA: 0.0417
AGTATAGG: 0.119
CCTTCGCC: -0.198
GCTACGCA: -0.146
GCCTGGAA: -0.0183
ACCCTGCG: -0.141
GTAAAAAC: 0.25
ATCGCTAA: 0.082
AATAGACT: 0.123
CACCATCC: -0.1
AGCGCCCC: -0.411
CATTCGGG: -0.224
GGGACGCA: -0.19
CGTTTCAA: 0.0795
CTTCTTCC: -0.137
AATCTCAT: 0.287
AGAGTCAG: -0.203

Series 3
Target: Interferon regulatory factor 5, full length, phosphomimetic (IRF5, Homo sapiens, UniProt Q13568-2, residues 1-514, K96S/S451D/S453D/S456D/S462D)
Technique: protein-binding microarray
Form: double-stranded DNA, one strand shown
Medium: in vitro
Tested at: 250 nM
Notes: 60-bp whole probe
Together with: salmon DNA 0.4 mg/ml
Reference: random background probes
Reading: higher = stronger binding
Endpoint: log fluorescence
All sequences stand within: GCCTAGCAC … GTCTTGATTCGCTTGACGCTGCTG
TTAGGTTTGCTTCTCCTTTAGTGCTAG: -0.00121 z-score
TTAGATCTCAGTTTCGATTAGTGCTAG: 9.55 z-score
GACGATATTGGGTATCGAGACGTGCTA: 1.32 z-score
TACTCTTGTGACTATGGACCGTGCTAG: 0.202 z-score
GACGGACTGGGGTTTCCGGACGTGCTA: -0.472 z-score
TTAGGTATCGACACTGGGTCAGTGCTA: 2.23 z-score
GACGGTATCCGTATCGGGACGTGCTAG: 0.819 z-score
GGCGGTTTCGGTCTCGGGACGTGCTAG: 9.16 z-score
TTAGGTTTCGGTATCGGATAGTGCTAG: 10.7 z-score
GACGATTTAAGTTTCGAGACGTGCTAG: 4.86 z-score
TTAGGTTTCCTACTGCTTAAGTGCTAG: 0.567 z-score
TTAGAACTGCTTCTCCTTTAGTGCTAG: 0.00814 z-score
ATAGGACTGCTACTGCTTTAGTGCTAG: -0.317 z-score
TCAGTTATCACTTCCAAACTGTGCTAG: 1.68 z-score
TTAGTTTTCCTTCTCCTTTAGTGCTAG: 1.87 z-score
GACGAACTGGGGTTTCGAGAGGTGCTA: 0.958 z-score
TTAGGTTCCGGTTCCGGTTAGTGCTAG: 2.62 z-score
GACCGTATCCTACTGCTGACGTGCTAG: -0.0561 z-score
TTAGAACGGAGTTTCGATTAGTGCTAG: 8.83 z-score
GACGATCTCAGTCTCGCGACGTGCTAG: -0.336 z-score
GAGACTTTGCTCTGTGCATAGGTGCTA: -0.18 z-score
TCTTGTCTGGAGTCTCTGTTCGTGCTA: 0.12 z-score
GACGATTTAAGTTCCGAGACGTGCTAG: 0.116 z-score

Series 4
Target: RING finger protein unkempt homolog, zinc fingers 1-6, SBP tag (UNK, Homo sapiens, UniProt Q9C0B0, residues 30-357)
Chain of UniProt Q9C0B0 (30-357, looked up): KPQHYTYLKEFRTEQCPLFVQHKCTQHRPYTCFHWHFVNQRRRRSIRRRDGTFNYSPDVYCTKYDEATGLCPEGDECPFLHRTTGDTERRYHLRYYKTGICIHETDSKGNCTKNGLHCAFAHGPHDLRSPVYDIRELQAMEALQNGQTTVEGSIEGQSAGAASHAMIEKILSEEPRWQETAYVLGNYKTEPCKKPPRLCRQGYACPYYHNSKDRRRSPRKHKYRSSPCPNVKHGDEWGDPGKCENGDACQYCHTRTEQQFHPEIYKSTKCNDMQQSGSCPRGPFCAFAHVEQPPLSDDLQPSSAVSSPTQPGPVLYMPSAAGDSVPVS
Technique: RNA Bind-n-Seq
Form: RNA
Medium: in vitro
Tested at: 100 nM
Notes: RNA with constant flanks, vertebrate orthologous sites, ends assumed
Reference: input RNA pool
Reading: higher = stronger binding
Endpoint: bound/input enrichment
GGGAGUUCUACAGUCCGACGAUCAAGACGGUGGUUGUACAUUAUUUCAUUUAGAAAAUAUGAAAACUCAUCUUGUUUUGAAGCUAGGUGUUAAACUGGAAUAGCUAUUACGUUCUUGAAAAAUGGGGCAGUUGUGCCCUUUCCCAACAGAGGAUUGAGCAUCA: 0.632 ratio
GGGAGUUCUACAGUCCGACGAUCGGGACGUUUUGAUGUAAAAAUUGAAGUUAAGAGCUGAUCACAAGCACAAAUCUUUCCCACUAGCCAUUUAAACCAUUAAAAAGAUACAAAAACAAAACCUACUAGUCUUGAACAAACUGUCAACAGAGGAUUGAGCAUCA: 2.26 ratio
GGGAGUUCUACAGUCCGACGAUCGAUGAAGAUGGUGGUUGUACAUUAUUUCAUUUAGAAAAUAUAAAAAUUUUGGUUUGAAGCUAGGUAUUAAACUGGAAUAGCUAUAUACCCCAGAGACUGGGGCAGUUGUGCCCUUCCCUUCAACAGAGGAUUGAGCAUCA: 1.11 ratio
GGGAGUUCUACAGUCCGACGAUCCAUGCACAUGACACUACCACCAAAAGCAAACACCUUUUUCAAAUUCAUUAAUAGCAUUUUUAGAAUUCCUUCCUUUCCUUCUGUUCCCCUAAUGCUUUAAACUAUUAGAAGUCCUGGUUCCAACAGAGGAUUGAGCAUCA: 2.74 ratio
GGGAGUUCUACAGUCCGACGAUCCAACUCAAUGGUGGAGGGUUCAGAACUCAAAAAGGUCCGCUCCAACUCUAGAAUAUACCAUAGGUAUUUUUUACUAGAUGCUGACAUGCAAAGCCUGAGGUGGGAGCCAUCUAAGAAGGACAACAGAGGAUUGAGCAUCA: 0.185 ratio
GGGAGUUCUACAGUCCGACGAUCAUUUAGAAUCUUAGUAAAUUGCUCCAAGAUUCUUAAAGUCAGUUUUGUAAGAUCAGACCAUAGGUUGGUGUUCUUUUAAGCUUGUGUACUGUGUCCAACGUCACAUUUUUUAAAGUGUUCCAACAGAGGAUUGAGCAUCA: 0.305 ratio
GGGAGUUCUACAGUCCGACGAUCGUGUUUGUUUUGCACAUGGCAGUGUUUAUAUUGAGGAUCUUCUGAGGAGGAAGGGGUGCCUAGCAGUGGUGCCUGGGCUCCUGGCCUCUAGCGCCCCACCCGCCUCAGCACCCUGCCUGGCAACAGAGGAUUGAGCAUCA: 0.433 ratio
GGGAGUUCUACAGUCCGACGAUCCCCUCUUAAUCCCAUAUCUUCUGUUUCAUAGUACUGAAGUCUUAUCUUCAGUUACUAUAUUAGUGACCUUAUUUUAAUUUUAGAGAAACCCUCAGCAUGGAUACUGUGAGCUUACGUGGACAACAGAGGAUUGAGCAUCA: 8.45 ratio
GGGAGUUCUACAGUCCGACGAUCAAAGUCCUGGCCACUUGUAUCACCUCAGUGAGGCAAAGGCUCCUAGCAUUCAGCCAGGACCAGCCCCGCCAUCCUCAGACUCAGCACCUGUAAUUUUAUUUCUUUUAUACAUGCCCAUCUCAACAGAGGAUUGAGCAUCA: 0.642 ratio
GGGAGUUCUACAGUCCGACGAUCCCCUUUUGUUUUUGUUUUGUUGUUUUUUUAGUUUAGUGUUUUUAUUUUUAAUCUUUUUGGUAGUUGUUGUUACCCACGCCAUUUUACGUCUCCUUCACUGAAGGGCUAGAGUUUUAACUUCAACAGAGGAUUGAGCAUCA: 10.1 ratio
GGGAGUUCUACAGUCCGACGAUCAUUCAAACCUGUGGUACCUUGGCCCCACGUGGAAGGGGUAGAAGUGGACUUGGAGUCUAUUAGAAGAAAAAACAAAGCCAAAAAUGACCAAGAGCAUCAGGCUGGAGGUGUCAAUCAGCACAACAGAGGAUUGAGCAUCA: 0.412 ratio

Some of these lines once more (series 2):
CCTTCGCC: -0.198
GCTACGCA: -0.146
GCCTGGAA: -0.0183
ACCCTGCG: -0.141
GTAAAAAC: 0.25
ATCGCTAA: 0.082
